Measurements pooled from the literature.
Parts stem from different laboratories: compare values within a part only.

Set 1
Target: Sal-like protein 4, full length isoform A (SALL4, Homo sapiens, UniProt Q9UJQ4, residues 1-1053)
Sequence of UniProt Q9UJQ4 (whole entry, looked up): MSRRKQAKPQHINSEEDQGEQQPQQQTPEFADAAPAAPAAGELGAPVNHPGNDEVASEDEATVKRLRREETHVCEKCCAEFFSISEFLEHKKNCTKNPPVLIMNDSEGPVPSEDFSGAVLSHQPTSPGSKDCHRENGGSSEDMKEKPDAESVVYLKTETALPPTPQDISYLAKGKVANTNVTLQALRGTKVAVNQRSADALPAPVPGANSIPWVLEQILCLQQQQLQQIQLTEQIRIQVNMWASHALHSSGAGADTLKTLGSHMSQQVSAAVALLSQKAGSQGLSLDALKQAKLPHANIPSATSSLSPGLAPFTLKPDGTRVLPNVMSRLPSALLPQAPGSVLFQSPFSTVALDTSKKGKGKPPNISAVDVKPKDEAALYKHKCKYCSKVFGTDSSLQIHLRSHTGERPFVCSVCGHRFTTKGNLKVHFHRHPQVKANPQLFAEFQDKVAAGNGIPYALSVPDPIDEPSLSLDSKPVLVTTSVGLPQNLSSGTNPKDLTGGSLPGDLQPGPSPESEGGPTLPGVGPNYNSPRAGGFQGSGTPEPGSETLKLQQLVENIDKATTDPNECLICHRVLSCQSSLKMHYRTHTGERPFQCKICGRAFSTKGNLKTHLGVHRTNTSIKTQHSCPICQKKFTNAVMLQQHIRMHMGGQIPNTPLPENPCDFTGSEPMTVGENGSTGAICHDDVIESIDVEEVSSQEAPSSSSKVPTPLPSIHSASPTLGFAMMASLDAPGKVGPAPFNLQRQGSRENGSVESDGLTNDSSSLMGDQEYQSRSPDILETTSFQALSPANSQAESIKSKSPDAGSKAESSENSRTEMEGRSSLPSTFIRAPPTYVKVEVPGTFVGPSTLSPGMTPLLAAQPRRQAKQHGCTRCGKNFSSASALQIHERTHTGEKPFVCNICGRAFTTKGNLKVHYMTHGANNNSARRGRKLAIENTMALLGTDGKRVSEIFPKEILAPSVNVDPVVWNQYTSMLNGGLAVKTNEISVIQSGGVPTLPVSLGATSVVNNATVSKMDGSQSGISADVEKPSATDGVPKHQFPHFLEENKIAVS
Technique: universal PBM
Molecule type: double-stranded DNA, one strand shown
Matrix: in vitro
Concentration: 600 nM
Notes: 8-mer, flanks averaged, mean of replicates
Reading: higher = stronger binding
| Strand | E-score |
| --- | --- |
| ACCACAGT | -0.0395 |
| ACAGAACC | -0.105 |
| ATTGATGC | 0.175 |
| ACCAAACT | -0.00206 |
| AGGCCCAC | -0.35 |
| CTGGGAGC | -0.302 |
| CACGGCGC | -0.209 |
| ACGTTACC | -0.123 |
| CCCCAAAA | 0.0893 |
| GAAGGTGC | -0.215 |
| CCTCTGAG | -0.163 |
| AGACGTAA | 0.0953 |
| CTGAATGC | -0.11 |
| GCGACCGA | -0.23 |
| CTAGCCTC | -0.105 |
| CCGATGCC | -0.201 |
| CCGCAGCA | -0.233 |
| AATGTTGC | 0.12 |
| CTGCCCTC | -0.288 |
| AGGGCAGC | -0.318 |
| CCGAACTA | -0.043 |
| ATCTTAAA | 0.19 |
| CTCCTGGA | -0.218 |
| CGGGGATC | -0.352 |
| ACGTTTGG | 0.0727 |

Set 2
Target: Ras GTPase-activating protein-binding protein 1, C-terminal RGG region (G3BP1, Homo sapiens, UniProt Q13283)
Sequence of UniProt Q13283 (whole entry, looked up): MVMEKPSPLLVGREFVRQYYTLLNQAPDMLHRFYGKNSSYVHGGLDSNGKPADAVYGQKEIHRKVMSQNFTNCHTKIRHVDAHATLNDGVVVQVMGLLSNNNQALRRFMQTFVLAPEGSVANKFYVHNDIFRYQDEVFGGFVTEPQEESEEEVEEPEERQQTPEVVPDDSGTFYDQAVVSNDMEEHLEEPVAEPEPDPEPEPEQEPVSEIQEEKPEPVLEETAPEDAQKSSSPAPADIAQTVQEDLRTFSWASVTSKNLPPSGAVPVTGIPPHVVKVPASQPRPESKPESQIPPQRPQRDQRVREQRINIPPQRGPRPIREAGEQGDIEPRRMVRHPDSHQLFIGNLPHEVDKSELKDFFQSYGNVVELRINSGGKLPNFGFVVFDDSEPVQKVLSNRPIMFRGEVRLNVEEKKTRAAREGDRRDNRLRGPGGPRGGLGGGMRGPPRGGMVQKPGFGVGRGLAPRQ
Technique: RNA Bind-n-Seq
Molecule type: RNA
Matrix: in vitro
Concentration: 1 µM
Notes: whole 134-nt RNA, ends assumed
With: 150 mM KCl
Relative to: input library
Reading: higher = stronger binding
| Strand | log2 enrichment |
| --- | --- |
| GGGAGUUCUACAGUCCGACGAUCUGGGAGGUGGAUUUUGUUUAUUUUUUUGGCUCAUUUCCAGGGGUGGGAAUUUUUUUUUAAUAUGUGUCAUGAAUAAAGUUGUUUUUGAAAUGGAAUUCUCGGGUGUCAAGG | 3.86 |
| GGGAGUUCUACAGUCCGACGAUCCACAGACAACACGCACCCACACAGACACAGAGGGAACGGGUUGGGAUGGGGACAGGGUGCACAGCAGGGCGGGGUAGGACCCCAGCCCCUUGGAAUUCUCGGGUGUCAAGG | 0.352 |
| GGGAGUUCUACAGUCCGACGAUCAAGUCCUGUGCUACACAUCGUAUGUACCGAAUCGGAAAAAGGAAAAAGGAAAAAGGAAAGUAUUAUGUUACGCCGUUCGGAUCUGCACUUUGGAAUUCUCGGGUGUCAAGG | -1.91 |
| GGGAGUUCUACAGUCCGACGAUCUCCUGUGCUACACAUCGUAUGUACCGAAUCGGGGUUUUUUUGGGGUGGGGUUUUUGGGGAAAGUAUUAUGUUACGCCGUUCGGAUCUGCAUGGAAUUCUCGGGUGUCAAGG | 1.55 |
| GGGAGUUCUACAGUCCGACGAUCUAACUUUAGAGGAGGAUCUGGUGGAUAUGGCAGUGGACGUGGAUUUGGGGAUGGCUAUAAUGGGUAUGGAGGAGGACCUGGAGGUGGCAAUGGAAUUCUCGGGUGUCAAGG | -1.46 |
| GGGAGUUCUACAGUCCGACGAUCACCAUGCAGGUGGGCAUCUUUGGGAAGUGGGGCAAGGGGGGGAUAGGGAGGGGGGUAACACUUUGGGUACAGGUGGUCCCAGGUCGUUUCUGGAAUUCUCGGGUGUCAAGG | 1.99 |
| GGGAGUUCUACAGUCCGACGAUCUCAAGUCCUGUGCUACACAUCGUAUGUACCGAAUCGGGAAGGGGAAGGAAGGGGAAAGUAUUAUGUUACGCCGUUCGGAUCUGCACUUCCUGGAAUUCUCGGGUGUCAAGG | 0.944 |
| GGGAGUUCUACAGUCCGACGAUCCACAGACAACACGCACCCACACAGACACAGAGGGAAGGGGUUGGGACGGGGACAGGGUGCACAGCAGGGCGGGGUAGGACCCCAGCCCCUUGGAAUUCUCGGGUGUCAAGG | -0.709 |
| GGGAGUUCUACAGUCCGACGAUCAGUCCUGUGCUACACAUCGUAUGUACCGAAUCGGGGUUUGGGGUGGGGUUUUUGGGGAAAGUAUUAUGUUACGCCGUUCGGAUCUGCACUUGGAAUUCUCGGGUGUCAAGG | 1.06 |
| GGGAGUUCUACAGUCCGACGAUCUCAAGUCCUGUGCUACACAUCGUAUGUACCGAAUCGGAAAAAGGAAAAAGGUGGAAAGUAUUAUGUUACGCCGUUCGGAUCUGCACUUCCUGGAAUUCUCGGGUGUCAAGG | -1.4 |

Set 3
Target: Interferon regulatory factor 7, full length, phosphomimetic (IRF7, Homo sapiens, UniProt Q92985, residues 1-503, S471D/S472D/S475D/S476D/S477D/S483D/S484D/S487D)
Technique: protein-binding microarray
Molecule type: double-stranded DNA, one strand shown
Matrix: in vitro
Concentration: 2200 nM top
Notes: 60-bp whole probe
With: salmon DNA 0.4 mg/ml
Relative to: random background probes
Reading: higher = stronger binding
Constant ends, left off below: GCCTAGCAC … GTCTTGATTCGCTTGACGCTGCTG
Target sequence (chain): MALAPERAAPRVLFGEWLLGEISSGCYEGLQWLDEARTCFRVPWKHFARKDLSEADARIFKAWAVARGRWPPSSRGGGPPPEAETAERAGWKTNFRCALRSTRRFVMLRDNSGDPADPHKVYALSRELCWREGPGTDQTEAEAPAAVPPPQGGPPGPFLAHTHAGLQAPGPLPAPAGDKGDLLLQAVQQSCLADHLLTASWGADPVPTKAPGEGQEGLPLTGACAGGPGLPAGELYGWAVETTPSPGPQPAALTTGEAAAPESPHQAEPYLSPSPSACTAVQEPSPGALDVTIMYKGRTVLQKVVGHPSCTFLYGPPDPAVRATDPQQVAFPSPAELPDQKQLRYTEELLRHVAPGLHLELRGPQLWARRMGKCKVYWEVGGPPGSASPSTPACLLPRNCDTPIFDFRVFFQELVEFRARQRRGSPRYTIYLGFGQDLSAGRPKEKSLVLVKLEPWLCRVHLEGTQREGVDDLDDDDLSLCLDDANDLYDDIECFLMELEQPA
| Strand | fitted relative affinity |
| --- | --- |
| TTAGAACGGAGACTGGATTAGTGCTAG | -0.675 z-score |
| GACGATTTCGGGACTCGAGACGTGCTA | 1.67 z-score |
| GACGGTATCCTTCTCCTAACGTGCTAG | 1.23 z-score |
| GACGACCTGAGTCTCGAGACGTGCTAG | -0.0537 z-score |
| TTAGATATCAGTATCGGTTAGTGCTAG | 0.761 z-score |
| TTAGGTATCGGGTTTCGGTCAGTGCTA | 2.15 z-score |
| GACGAAATCGGGACTGGAGACGTGCTA | -0.351 z-score |
| TTAGGTTTGCTTATCCTTTAGTGCTAG | 1.13 z-score |
| GACGGACTGGAGTATCGGGACGTGCTA | -0.839 z-score |
| GACGATTTCAGTTCTGAGACGTGCTAG | 1.9 z-score |
| TTACATATCAGTATCGATTAGTGCTAG | 1.36 z-score |
| GACGAACTGAGTGTCGAGACGTGCTAG | -0.244 z-score |
| TTAGGTTTCGGGTTCGGTTAGTGCTAG | 9.66 z-score |
| TCATCTCTTTCCTTCTTACTGTGCTAG | 3.37 z-score |
| TTAGGTTTCAGTTTCGATTAGTGCTAG | 10.6 z-score |
| TCATTTTTTTATTTATAACTGTGCTAG | 1.32 z-score |
| TTTGGACTGGGACTGGGTTAGTGCTAG | -0.335 z-score |
| GACGCTCTCGGACTGGGGACGTGCTAG | -0.176 z-score |
| TCAAATTTTAGTAACACACTGTGCTAG | -0.413 z-score |
| GACGATATCAGACTGGTGACGTGCTAG | 0.224 z-score |
| TTAGGTCTCCTTCGCCTTTAGTGCTAG | 1.19 z-score |
| TCATTTTTATCAAATGTGACTGTGCTA | 0.591 z-score |
| TCATATTTTAATCACATACTGTGCTAG | 0.914 z-score |
| TTAGGTTTCGGGACTGGGGTAGTGCTA | 3.22 z-score |
| AAAACACTAATTTTCATTTTGTGCTAG | 3.13 z-score |

Set 4
Target: Protein C-ets-1 (ETS1, Homo sapiens, UniProt P14921, residues 1-441, full length assumed)
Sequence of UniProt P14921 (whole entry, looked up): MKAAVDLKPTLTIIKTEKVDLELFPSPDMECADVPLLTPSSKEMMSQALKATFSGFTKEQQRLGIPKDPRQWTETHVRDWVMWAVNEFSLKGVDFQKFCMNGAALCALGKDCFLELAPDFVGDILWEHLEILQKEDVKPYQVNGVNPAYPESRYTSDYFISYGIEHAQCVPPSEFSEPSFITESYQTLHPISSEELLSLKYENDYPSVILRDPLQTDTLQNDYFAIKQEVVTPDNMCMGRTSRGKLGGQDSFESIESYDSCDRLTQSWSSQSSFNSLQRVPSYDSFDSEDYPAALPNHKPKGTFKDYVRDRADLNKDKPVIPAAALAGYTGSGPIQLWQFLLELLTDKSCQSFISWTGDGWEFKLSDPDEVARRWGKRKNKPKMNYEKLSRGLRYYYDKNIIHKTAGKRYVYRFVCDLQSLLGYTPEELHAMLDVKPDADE
Technique: protein-binding microarray
Molecule type: double-stranded DNA, one strand shown
Matrix: in vitro
Concentration: not given
Notes: k-mer, scored over probes, only values ≥0.25
Reading: higher = stronger binding
| Strand | E-score |
| --- | --- |
| GCGGCGGA | 0.327 |
| GAAGCGGA | 0.4 |
| CGTTATCC | 0.263 |
| ATCCTATC | 0.277 |
| AGCCGGAA | 0.479 |
| CCAATCCG | 0.277 |
| CTTCCTTA | 0.37 |
| AGCTTCCG | 0.483 |
| TATAGGAA | 0.281 |
| CATCCGTC | 0.423 |
| CTGCCGGA | 0.414 |
| CGGATTCC | 0.277 |
| GTCCGGTA | 0.391 |
| AGGACATC | 0.294 |
| CATCCTCA | 0.264 |
| GCCAGGAA | 0.276 |
| AGGAACTC | 0.26 |

Set 5
Target: Histone acetyltransferase KAT6A, winged helix 1, GST fusion (KAT6A, Homo sapiens, UniProt Q92794, residues 1-85)
Technique: protein binding microarray
Molecule type: double-stranded DNA, one strand shown
Matrix: in vitro
Concentration: not given
Notes: 8-mer, flanks averaged, mean of 2 arrays, mostly near background
Relative to: not given
Reading: higher = stronger binding
Construct (chain): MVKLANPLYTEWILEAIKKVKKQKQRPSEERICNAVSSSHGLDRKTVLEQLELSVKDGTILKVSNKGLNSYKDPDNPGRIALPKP
| Strand | E-score |
| --- | --- |
| ACGCTGAA | 0.168 |
| GCCCCCGA | 0.139 |
| GTGAGTTA | -0.198 |
| TGGCATAA | -0.261 |
| AACCTGCC | -0.0499 |
| CACTCGGA | -0.124 |
| CTTACAAA | -0.0622 |
| GCAGAAGC | 0.0918 |
| AATTCACA | -0.083 |
| GCTCTGAC | -0.0397 |
| AGCGGGCG | 0.413 |
| AGCTAATG | -0.258 |
| CAGAACTA | -0.0121 |
| CTTCAGGC | -0.109 |
| ACTTAGCT | -0.133 |
| TGGTAGAA | -0.134 |
| ATGTTAGA | -0.173 |
| GCACAAGA | -0.115 |

For quick reference, copied from above (set 5):
| Strand | E-score |
| --- | --- |
| GTGAGTTA | -0.198 |
| TGGCATAA | -0.261 |
| AACCTGCC | -0.0499 |
| CACTCGGA | -0.124 |
| CTTACAAA | -0.0622 |
| GCAGAAGC | 0.0918 |
| AATTCACA | -0.083 |
| GCTCTGAC | -0.0397 |
| AGCGGGCG | 0.413 |
| AGCTAATG | -0.258 |
| CAGAACTA | -0.0121 |
| CTTCAGGC | -0.109 |
| ACTTAGCT | -0.133 |
| TGGTAGAA | -0.134 |
| ATGTTAGA | -0.173 |
| GCACAAGA | -0.115 |
